{"data": "Earlier results, collected from citations in different studies", "note": "Each line is one published result; not all experiments were run side by side. ± marks the error that the study gave.", "chain of UniProt P21918 (whole entry, looked up)": "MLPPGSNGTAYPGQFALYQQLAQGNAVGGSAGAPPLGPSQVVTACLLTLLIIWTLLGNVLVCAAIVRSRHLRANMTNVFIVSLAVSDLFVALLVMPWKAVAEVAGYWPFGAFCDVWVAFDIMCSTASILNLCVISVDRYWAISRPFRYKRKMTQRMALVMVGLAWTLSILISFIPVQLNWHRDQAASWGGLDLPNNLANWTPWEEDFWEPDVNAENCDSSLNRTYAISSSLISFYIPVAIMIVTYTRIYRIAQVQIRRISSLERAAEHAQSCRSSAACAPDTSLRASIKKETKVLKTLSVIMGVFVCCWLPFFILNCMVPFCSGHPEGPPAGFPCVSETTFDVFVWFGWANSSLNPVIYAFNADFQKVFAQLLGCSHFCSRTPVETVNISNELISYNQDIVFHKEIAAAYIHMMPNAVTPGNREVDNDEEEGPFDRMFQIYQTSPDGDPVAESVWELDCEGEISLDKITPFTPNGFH", "chain of UniProt P18825 (whole entry, looked up)": "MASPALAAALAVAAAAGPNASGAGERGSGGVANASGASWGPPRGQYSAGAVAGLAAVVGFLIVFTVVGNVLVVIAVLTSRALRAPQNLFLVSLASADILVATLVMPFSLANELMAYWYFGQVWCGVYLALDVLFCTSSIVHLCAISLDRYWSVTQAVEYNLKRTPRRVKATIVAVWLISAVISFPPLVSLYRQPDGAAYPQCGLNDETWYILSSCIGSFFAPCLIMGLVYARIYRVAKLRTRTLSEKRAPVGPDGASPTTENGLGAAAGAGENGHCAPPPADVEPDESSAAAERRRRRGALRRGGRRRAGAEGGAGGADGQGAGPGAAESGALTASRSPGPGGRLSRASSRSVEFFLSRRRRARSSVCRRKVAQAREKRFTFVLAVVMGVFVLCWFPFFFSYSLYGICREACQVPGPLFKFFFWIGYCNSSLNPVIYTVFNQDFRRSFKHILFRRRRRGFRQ", "chain of UniProt P21554 (whole entry, looked up)": "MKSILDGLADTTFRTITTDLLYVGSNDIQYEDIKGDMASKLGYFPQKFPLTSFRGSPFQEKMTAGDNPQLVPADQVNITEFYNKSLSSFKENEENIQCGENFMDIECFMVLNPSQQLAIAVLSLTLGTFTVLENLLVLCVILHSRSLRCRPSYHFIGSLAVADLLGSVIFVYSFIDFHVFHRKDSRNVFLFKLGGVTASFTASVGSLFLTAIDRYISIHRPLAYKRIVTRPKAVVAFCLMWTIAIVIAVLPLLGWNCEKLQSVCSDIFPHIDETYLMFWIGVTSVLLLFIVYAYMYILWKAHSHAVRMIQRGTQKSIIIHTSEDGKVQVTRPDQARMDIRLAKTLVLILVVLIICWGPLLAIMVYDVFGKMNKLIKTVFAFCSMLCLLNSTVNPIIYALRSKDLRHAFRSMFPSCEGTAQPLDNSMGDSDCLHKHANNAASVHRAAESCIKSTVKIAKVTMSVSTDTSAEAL"}
{"Compound": "CN(C)C(=O)CCSC(SCCC(=O)O)c1cccc(/C=C/c2ccc3ccc(Cl)cc3n2)c1 (stereo not drawn)", "target": "MRP2 (ABCC2)", "test": "inhibitor", "quantity": "IC50", "result": "10 µM"}
{"Compound": "C=CCN(CC=C)CCc1c[nH]c2ccccc12", "target": "ADRA2C (Homo sapiens, UniProt P18825)", "test": "binding", "system": "cloned human receptor", "conditions": "added: [3H]rauwolscine", "quantity": "Ki", "result": "0.901 µM"}
{"Compound": "C[C@@H](c1nc(-c2ccc(C#N)cc2)cs1)[C@](O)(Cn1cncn1)c1cc(F)ccc1F", "target": "UGT2B7 human", "test": "inhibitor", "system": "human liver microsomes", "conditions": "added: morphine", "quantity": "IC50", "result": "44 µM"}
{"Compound": "Cc1ccc(OC(C)(C)C(=O)N[C@@H](C)[C@@H](Cc2ccc(OCCF)cc2)c2cccc(C#N)c2)nc1 [fluorine-18 labelled]", "target": "CNR1 (Homo sapiens, UniProt P21554)", "test": "PET", "system": "human, putamen", "quantity": "VT", "result": "25.1 ± 13.3 mL/cm³"}
{"Compound": "C=CCN(CC=C)CCc1c[nH]c2ccc(F)cc12", "target": "DRD5 (Homo sapiens, UniProt P21918)", "quantity": "Ki", "result": "> 10 µM"}
{"Compound": "CN(C)C(=O)C(CCN1CCC(O)(c2ccc(Cl)cc2)CC1)(c1ccccc1)c1ccccc1", "target": "P-glycoprotein, human", "test": "refers to: 11C radioactivity brain to plasma", "system": "healthy human volunteers", "conditions": "intravenous, dose not given, added: ciclosporin 10 mg/kg intravenous infusion", "quantity": "brain distribution increase", "result": "110%"}
{"Compound": "O=C1OC(c2ccc(O)c(S(=O)(=O)O)c2)(c2ccc(O)c(S(=O)(=O)O)c2)c2c(Br)c(Br)c(Br)c(Br)c21", "target": "ABCC2 and OATP2B1, human", "test": "uptake, substrate", "system": "MDCK-II ABCC2/OATP2B1 transfected", "quantity": "Km", "result": "0.0034 mM"}
{"Compound": "Cc1ccc(OCC(=O)N(Cc2cccs2)c2ccn[nH]2)cc1", "target": "CYP3A4 (human)", "test": "inhibitor", "system": "pooled human liver microsomes", "conditions": "10 µM, added: midazolam substrate", "quantity": "CYP3A4 inhibition", "result": "inhibited"}
{"Compound": "Cc1ccccc1-c1cc(N2CCN(C)CC2)ncc1N(C)C(=O)C(C)(C)c1cc(C(F)(F)F)cc(C(F)(F)F)c1", "target": "CYP3A4 (human)", "test": "inhibitor", "system": "human", "conditions": "concentration not given, added: dexamethasone, erythromycin, midazolam", "quantity": "exposure of co-dosed substrates", "result": "increased"}
{"Compound": "Clc1cc2c(cc1Cl)Oc1cc(Cl)c(Cl)cc1O2", "target": "mouse AHR", "test": "radioligand saturation binding", "conditions": "tritiated compound", "quantity": "Kd", "result": "0.00068 µM"}
{"Compound": "c1cc2c(cc1[C@H]1OC[C@H]3[C@@H]1CO[C@@H]3c1ccc3c(c1)OCO3)OCO2", "target": "CYP2C9", "test": "inhibitor", "system": "human liver microsomes", "quantity": "Ki", "result": "22 µM"}
{"Compound": "C1CO1", "target": "glutathione S-transferase", "test": "glutathione conjugation, substrate", "system": "rat, liver cytosol", "quantity": "Km", "result": "10 mM"}
{"note": "Excerpt of the above:"}
{"Compound": "C1CO1", "target": "glutathione S-transferase", "test": "glutathione conjugation, substrate", "system": "rat, liver cytosol", "quantity": "Km", "result": "10 mM"}
{"Compound": "C[C@@H](c1nc(-c2ccc(C#N)cc2)cs1)[C@](O)(Cn1cncn1)c1cc(F)ccc1F", "target": "UGT2B7 human", "test": "inhibitor", "system": "human liver microsomes", "conditions": "added: morphine", "quantity": "IC50", "result": "44 µM"}
